Measurements pooled from the literature.
Each line is one published result; not all experiments were run side by side. ± marks the error that the study gave.

| Compound | test | system | conditions | EC50 |
| --- | --- | --- | --- | --- |
| CC(=O)Nc1ccc(C(N)=O)c(F)c1 | aPTT clotting time | human plasma | 50% prolongation | > 37.5 µM |
| COC(=O)C=CCCC(NC(=O)c1ccncc1C(=O)O)C(=O)NC(C(=O)N1CC(=O)CC1C(=O)NC(C(=O)NC(C(N)=O)C1CCCCC1)C1CCCCC1)C(C)(C)C (stereo not drawn) | maximum clot firmness reduction, rotational thromboelastometry | human whole blood | added: 0.02 µg/mL t-PA | 1.7 ± 0.2 µM |
| Cl.[Cl][Ru-4]123([n+]4ccccc4-c4cccc([n+]41)-c1cccc[n+]12)[n+]1ccc(-c2ccccc2)c2ccc4c(-c5ccccc5)cc[n+]3c4c21 | DNA damage, gel electrophoresis | pUC19 plasmid DNA | 16 h, 37 °C | 21.9 µM |
| CC(C)C1=C(OC(=O)C(C)(C)C)C(=O)C2=C(C=C[C@H]3C(C)(C)CCC[C@]23C)C1=O | total antioxidant capacity, phosphomolybdenum method | – | – | 480 µM |
| Cc1cccc(C)c1NC(=O)c1cc(-c2cccc(O)c2)on1 | membrane potential, rhodamine uptake | isolated mouse liver mitochondria | – | > 100 µM |
| Cc1ccc2nc(-c3ccc4nc(-c5ccc6nc(-c7ccc8nc(-c9ccc(N)cc9)sc8c7)sc6c5)sc4c3)sc2c1S(=O)(=O)O | DNA binding, SYBR Green I displacement | DNA substrate | – | 15 ± 8 µM |
| CCCCCC(O)C=CC1OC2OC(C1CC=CCCCC(=O)O)C2(F)F (stereo not drawn) | platelet aggregation, agonist, light transmission aggregometry | human platelet-rich plasma | – | 0.501 µM |
| Cc1ccc(Cl)cc1NC(=O)c1cc(-c2cccc(O)c2)on1 | membrane potential, rhodamine uptake | isolated mouse liver mitochondria | – | > 100 µM |
| Cc1ccc2nc(-c3ccc(N)cc3)sc2c1S(=O)(=O)O | DNA binding, SYBR Green I displacement | DNA substrate | – | > 100 µM |
| CCCCC[C@H](O)/C=C/[C@@H]1[C@@H](C/C=C\CCCC(=O)O)[C@H]2CO[C@@H]1C2 | platelet aggregation, agonist, light transmission aggregometry | human platelet-rich plasma | – | 1.41 µM |
| N.N.[Cl][Pt+].c1ccc2c(c1)cnc1ccccc12 | DNA damage, gel electrophoresis | pUC19 plasmid DNA | 16 h, 37 °C | 8.8 µM |
| CC(C)C1=C(OC(=O)CCc2ccccc2)C(=O)C2=C(C=C[C@H]3C(C)(C)CCC[C@]23C)C1=O | total antioxidant capacity, phosphomolybdenum method | – | – | 457 µM |

Repeated from above:
| Compound | test | system | conditions | EC50 |
| --- | --- | --- | --- | --- |
| CCCCCC(O)C=CC1OC2OC(C1CC=CCCCC(=O)O)C2(F)F (stereo not drawn) | platelet aggregation, agonist, light transmission aggregometry | human platelet-rich plasma | – | 0.501 µM |
